Measurements from different studies.
± marks the error that the study gave.
Target: Cytochrome P450 3A4 (CYP3A4, Homo sapiens, UniProt P08684)
UniProt P08684, sequence (whole entry, looked up): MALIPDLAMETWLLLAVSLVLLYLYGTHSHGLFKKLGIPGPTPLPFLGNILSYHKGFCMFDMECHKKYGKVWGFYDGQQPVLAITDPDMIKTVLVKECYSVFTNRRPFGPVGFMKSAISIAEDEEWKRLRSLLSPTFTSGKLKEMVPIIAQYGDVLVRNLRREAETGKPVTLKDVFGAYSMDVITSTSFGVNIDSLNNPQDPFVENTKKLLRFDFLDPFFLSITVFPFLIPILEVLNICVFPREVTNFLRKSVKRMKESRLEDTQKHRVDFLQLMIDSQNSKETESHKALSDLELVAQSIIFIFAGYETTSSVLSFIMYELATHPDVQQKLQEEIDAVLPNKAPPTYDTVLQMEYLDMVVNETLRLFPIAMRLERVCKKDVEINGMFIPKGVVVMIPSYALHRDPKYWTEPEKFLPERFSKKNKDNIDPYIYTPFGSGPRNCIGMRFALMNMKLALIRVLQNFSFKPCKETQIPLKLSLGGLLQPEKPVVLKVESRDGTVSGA

SMILES | assay | test system | conditions | quantity | value
CC(C)CC(=O)OC[C@H]1O[C@@](C#N)(c2ccc3c(N)ncnn23)[C@H](O)[C@@H]1O | metabolic stability | recombinant enzyme | 1 µM | intrinsic clearance | 6.37 ± 0.0905 µL/min/pmol
CC(=O)C(C)n1ncn(-c2ccc(N3CCN(c4ccc(OC[C@H]5CO[C@](Cn6cncn6)(c6ccc(Cl)cc6Cl)O5)cc4)CC3)cc2)c1=O (some centres unmarked) | inhibitor | human liver microsomes | added: midazolam | IC50 | 0.009 µM
CNCCN1C(=O)[C@H](OC(C)=O)[C@H](c2ccc(OC)cc2)Sc2ccccc21 | inactivator |  |  | kinact | 0.036 ± 0.001 min⁻¹
CSc1ccccc1C(=O)NCCn1cc(C(=O)NCc2cccc(C)n2)c(=O)c2cc3c(cc21)OC(F)(F)O3 | enzyme activity, inhibitor | human liver microsomes | 20 min, no NADPH preincubation, added: midazolam 5 µM | IC50 | > 100 µM
Cc1ncc2n1-c1ccc(Cl)cc1C(c1ccccc1F)=NC2 |  | human, plasma | oral, 2 mg, day 1, alone, arithmetic mean | Vd/F | 446 L
O=C1Cc2cc(CCN3CCN(c4nsc5ccccc45)CC3)c(Cl)cc2N1 | inhibitor |  | 10 µM, pH 7.4 | inhibition | 33%
CSc1ccccc1C(=O)NCCn1cc(C(=O)NCc2cccc(C)n2)c(=O)c2cc3c(cc21)OCO3 | enzyme activity, inhibitor | human liver microsomes | 20 min, 30 min NADPH preincubation, added: midazolam 5 µM | IC50 | 8.61 µM
N=c1c2c(-c3ccccc3)c(-c3ccccc3)n(Cc3ccccc3)c2ncn1[C@H]1CC[C@H](O)CC1 | recombinant CYP3A4 |  | concentration not given, pH 7.4 | compound converted | 30%
OCc1ncc2n1-c1ccc(Cl)cc1C(c1ccccc1F)=NC2 |  | human, plasma | 2 mg, alone, arithmetic mean | Cmax | 3.73 ng/mL
CS(=O)(=O)Nc1ncn(-c2cc(F)c(COc3ccc(OS(=O)(=O)F)cc3)c(F)c2)n1 |  |  |  | IC50 | > 50 µM
CCC[C@@](N)(CO)CCc1ccc(OCCCCCC(C)C)cc1 | enzyme activity, inhibitor |  | added: midazolam | IC50 | > 50 µM

A few entries again:
SMILES | assay | test system | conditions | quantity | value
CS(=O)(=O)Nc1ncn(-c2cc(F)c(COc3ccc(OS(=O)(=O)F)cc3)c(F)c2)n1 |  |  |  | IC50 | > 50 µM
CCC[C@@](N)(CO)CCc1ccc(OCCCCCC(C)C)cc1 | enzyme activity, inhibitor |  | added: midazolam | IC50 | > 50 µM
